{"data": "Published values gathered from unrelated publications", "note": "Numbered parts are unrelated; each lists some results of a single study. “And” joins repeats or separate records; there may be more than shown.", "UniProt P22607, sequence (whole entry, looked up)": "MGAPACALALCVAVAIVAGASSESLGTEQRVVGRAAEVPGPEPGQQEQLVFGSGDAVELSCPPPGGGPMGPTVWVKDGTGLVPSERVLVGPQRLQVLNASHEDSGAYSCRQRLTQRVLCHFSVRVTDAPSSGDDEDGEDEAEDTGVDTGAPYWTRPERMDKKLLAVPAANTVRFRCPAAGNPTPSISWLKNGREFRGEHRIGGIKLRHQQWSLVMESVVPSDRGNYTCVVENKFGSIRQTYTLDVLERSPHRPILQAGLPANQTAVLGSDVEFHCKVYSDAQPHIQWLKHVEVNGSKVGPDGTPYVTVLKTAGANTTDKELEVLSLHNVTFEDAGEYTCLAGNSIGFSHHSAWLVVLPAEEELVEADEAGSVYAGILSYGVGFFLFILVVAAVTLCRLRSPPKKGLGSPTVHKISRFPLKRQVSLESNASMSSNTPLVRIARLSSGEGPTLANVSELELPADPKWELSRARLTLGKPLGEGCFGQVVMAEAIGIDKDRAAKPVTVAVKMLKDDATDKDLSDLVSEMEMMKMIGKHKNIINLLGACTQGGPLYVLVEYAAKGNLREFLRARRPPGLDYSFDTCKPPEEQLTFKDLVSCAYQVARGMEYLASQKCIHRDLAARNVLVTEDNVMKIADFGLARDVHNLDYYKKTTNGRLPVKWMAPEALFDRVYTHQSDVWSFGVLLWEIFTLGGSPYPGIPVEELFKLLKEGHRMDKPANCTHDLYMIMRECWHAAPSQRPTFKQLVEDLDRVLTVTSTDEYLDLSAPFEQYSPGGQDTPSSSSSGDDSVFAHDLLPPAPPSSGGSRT", "UniProt Q8IYT8, sequence (whole entry, looked up)": "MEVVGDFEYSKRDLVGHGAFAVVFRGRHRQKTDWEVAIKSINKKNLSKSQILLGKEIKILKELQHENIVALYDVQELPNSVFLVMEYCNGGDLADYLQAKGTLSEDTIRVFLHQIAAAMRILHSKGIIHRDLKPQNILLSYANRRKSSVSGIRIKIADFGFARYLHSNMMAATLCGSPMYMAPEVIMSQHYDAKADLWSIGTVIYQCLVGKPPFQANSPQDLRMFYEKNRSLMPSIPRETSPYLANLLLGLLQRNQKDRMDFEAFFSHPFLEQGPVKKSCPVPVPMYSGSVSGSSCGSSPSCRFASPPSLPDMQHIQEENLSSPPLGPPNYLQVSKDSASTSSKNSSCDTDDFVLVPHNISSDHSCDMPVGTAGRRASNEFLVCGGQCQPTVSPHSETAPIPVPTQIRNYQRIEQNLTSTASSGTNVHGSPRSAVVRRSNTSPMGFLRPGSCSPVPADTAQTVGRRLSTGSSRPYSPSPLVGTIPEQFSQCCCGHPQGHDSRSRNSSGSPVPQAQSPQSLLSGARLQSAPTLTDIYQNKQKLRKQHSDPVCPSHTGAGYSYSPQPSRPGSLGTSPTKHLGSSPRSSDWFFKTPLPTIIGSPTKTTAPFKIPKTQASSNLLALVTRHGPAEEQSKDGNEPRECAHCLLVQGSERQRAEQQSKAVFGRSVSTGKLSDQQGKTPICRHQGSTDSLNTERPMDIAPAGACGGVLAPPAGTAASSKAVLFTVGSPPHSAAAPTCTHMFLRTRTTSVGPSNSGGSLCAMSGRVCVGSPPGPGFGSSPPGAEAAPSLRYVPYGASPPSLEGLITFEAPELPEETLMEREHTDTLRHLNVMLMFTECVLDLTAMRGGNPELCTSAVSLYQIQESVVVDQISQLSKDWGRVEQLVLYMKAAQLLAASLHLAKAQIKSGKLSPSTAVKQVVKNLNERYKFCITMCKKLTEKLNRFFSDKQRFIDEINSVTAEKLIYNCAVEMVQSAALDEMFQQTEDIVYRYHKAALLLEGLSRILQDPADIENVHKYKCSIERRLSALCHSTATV", "UniProt Q9Y6M4, sequence (whole entry, looked up)": "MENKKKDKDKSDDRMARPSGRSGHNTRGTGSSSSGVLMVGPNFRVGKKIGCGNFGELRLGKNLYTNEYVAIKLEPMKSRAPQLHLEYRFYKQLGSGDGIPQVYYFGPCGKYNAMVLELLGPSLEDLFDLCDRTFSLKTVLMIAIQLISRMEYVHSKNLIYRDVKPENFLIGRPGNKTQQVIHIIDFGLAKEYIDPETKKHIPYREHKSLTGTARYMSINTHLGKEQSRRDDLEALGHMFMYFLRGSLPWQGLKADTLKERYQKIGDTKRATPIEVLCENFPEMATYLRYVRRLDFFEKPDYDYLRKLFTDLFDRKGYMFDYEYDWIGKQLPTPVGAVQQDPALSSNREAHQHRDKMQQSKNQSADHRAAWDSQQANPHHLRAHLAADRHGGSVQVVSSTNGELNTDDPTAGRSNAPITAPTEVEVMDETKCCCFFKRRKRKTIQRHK", "UniProt P42685, sequence (whole entry, looked up)": "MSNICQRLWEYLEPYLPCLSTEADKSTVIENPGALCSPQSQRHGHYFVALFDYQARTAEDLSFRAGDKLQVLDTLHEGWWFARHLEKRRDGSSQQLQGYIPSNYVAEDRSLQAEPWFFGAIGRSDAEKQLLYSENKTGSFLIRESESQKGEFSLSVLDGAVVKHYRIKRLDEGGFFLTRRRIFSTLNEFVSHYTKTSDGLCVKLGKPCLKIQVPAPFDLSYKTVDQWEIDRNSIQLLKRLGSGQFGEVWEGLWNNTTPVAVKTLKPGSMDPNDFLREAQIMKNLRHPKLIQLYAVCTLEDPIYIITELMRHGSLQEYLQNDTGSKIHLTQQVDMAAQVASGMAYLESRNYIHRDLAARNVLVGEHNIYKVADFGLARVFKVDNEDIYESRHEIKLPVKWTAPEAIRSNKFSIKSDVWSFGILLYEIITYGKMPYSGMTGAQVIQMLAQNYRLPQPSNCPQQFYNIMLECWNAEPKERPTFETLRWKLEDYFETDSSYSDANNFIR", "UniProt P10721, sequence (whole entry, looked up)": "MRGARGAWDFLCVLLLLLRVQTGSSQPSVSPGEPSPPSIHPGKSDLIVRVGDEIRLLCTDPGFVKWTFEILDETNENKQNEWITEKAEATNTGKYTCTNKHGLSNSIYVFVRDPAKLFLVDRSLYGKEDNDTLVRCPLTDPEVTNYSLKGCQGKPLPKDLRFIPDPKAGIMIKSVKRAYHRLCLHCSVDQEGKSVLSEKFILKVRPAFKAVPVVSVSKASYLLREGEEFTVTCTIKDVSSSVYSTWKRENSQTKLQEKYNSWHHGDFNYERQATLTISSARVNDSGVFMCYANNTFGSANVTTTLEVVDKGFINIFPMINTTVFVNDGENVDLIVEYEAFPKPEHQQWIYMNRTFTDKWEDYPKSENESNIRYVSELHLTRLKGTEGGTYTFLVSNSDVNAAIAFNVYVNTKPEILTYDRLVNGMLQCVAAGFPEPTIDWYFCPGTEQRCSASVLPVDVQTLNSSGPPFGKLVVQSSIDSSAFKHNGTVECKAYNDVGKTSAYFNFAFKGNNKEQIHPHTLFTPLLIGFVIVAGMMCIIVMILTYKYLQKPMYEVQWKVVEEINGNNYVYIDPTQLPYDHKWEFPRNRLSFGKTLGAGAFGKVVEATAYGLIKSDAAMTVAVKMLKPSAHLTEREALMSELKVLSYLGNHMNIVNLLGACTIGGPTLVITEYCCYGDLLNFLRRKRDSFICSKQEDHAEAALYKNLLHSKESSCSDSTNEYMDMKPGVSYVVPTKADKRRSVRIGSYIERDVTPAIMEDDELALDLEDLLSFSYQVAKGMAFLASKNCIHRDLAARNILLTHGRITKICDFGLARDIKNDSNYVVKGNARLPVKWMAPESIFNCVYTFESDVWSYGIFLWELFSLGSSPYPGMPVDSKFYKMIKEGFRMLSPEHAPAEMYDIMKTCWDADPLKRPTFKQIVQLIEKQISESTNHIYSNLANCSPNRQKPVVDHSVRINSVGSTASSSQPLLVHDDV", "UniProt Q8WTQ7, sequence (whole entry, looked up)": "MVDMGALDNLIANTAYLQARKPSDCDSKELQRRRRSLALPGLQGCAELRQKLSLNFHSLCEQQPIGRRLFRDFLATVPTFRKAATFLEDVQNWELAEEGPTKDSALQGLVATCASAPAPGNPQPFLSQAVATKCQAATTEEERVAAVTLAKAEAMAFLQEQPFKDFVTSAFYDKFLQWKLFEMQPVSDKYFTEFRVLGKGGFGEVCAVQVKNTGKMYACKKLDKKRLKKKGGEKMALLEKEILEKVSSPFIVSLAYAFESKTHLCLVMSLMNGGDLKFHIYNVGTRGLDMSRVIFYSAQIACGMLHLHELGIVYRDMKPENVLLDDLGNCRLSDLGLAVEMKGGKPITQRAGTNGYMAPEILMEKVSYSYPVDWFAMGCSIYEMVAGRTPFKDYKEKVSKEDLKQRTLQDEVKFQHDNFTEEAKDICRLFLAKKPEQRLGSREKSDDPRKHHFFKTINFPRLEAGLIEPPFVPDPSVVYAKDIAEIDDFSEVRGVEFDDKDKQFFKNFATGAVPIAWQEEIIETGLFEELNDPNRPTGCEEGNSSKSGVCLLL", "UniProt Q13555, sequence (whole entry, looked up)": "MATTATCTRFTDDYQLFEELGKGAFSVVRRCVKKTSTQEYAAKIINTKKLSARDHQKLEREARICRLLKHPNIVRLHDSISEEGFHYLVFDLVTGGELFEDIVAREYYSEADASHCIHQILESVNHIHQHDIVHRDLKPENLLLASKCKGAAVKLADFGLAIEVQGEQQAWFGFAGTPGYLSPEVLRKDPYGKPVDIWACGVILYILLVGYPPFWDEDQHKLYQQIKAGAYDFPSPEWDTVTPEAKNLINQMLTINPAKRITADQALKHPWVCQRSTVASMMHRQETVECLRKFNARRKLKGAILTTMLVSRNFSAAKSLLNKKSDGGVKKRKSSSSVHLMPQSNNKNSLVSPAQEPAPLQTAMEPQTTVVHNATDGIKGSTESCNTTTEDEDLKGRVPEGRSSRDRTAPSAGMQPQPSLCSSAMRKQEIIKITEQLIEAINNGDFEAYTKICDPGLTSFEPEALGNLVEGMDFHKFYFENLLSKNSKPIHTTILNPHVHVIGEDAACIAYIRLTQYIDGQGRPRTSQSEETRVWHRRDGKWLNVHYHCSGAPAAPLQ"}
{"data": "Sample 1", "SMILES": "C[C@H](c1ccc(F)cc1)N(Cc1cccc(C(=O)O)c1)C(=O)c1cnc2ccccc2c1", "technique": "competition with immobilised ligand", "concentration": "1 µM"}
{"target": "Homeodomain-interacting protein kinase 4 (HIPK4, Homo sapiens, UniProt Q8NE63)", "effect on": "cell-free assay", "remaining binding [%]": 93}
{"target": "Insulin receptor (INSR, Homo sapiens, UniProt P06213)", "effect on": "cell-free assay", "remaining binding [%]": 100}
{"target": "Ephrin type-A receptor 4 (EPHA4, Homo sapiens, UniProt P54764)", "effect on": "cell-free assay", "remaining binding [%]": 92}
{"target": "Tyrosine-protein kinase ABL1, phosphorylated (ABL1, Homo sapiens, UniProt P00519, H396P)", "effect on": "cell-free assay", "remaining binding [%]": 100}
{"target": "Fibroblast growth factor receptor 3 (FGFR3, Homo sapiens, UniProt P22607)", "effect on": "cell-free assay", "remaining binding [%]": 82}
{"target": "Serine/threonine-protein kinase ULK2 (ULK2, Homo sapiens, UniProt Q8IYT8)", "effect on": "cell-free assay", "remaining binding [%]": 81}
{"target": "NT-3 growth factor receptor (NTRK3, Homo sapiens, UniProt Q16288)", "effect on": "cell-free assay", "remaining binding [%]": 92}
{"target": "Cyclin-dependent kinase 18 (CDK18, Homo sapiens, UniProt Q07002)", "effect on": "cell-free assay", "remaining binding [%]": 100}
{"target": "Calcium/calmodulin-dependent protein kinase type 1D (CAMK1D, Homo sapiens, UniProt Q8IU85)", "effect on": "cell-free assay", "remaining binding [%]": 100}
{"target": "Serine/threonine-protein kinase Nek2 (NEK2, Homo sapiens, UniProt P51955)", "effect on": "cell-free assay", "remaining binding [%]": 94}
{"target": "Tyrosine-protein kinase FRK (FRK, Homo sapiens, UniProt P42685)", "effect on": "cell-free assay", "remaining binding [%]": 77}
{"target": "Serine/threonine-protein kinase MARK1 (MARK1, Homo sapiens, UniProt Q9P0L2)", "effect on": "cell-free assay", "remaining binding [%]": 100}
{"target": "Phosphatidylinositol 3-kinase C2 domain-containing subunit gamma (PIK3C2G, Homo sapiens, UniProt O75747)", "effect on": "cell-free assay", "remaining binding [%]": 100}
{"target": "Phosphatidylinositol 4-phosphate 5-kinase type-1 gamma (PIP5K1C, Homo sapiens, UniProt O60331)", "effect on": "cell-free assay", "remaining binding [%]": 100}
{"target": "Calcium/calmodulin-dependent protein kinase type II subunit gamma (CAMK2G, Homo sapiens, UniProt Q13555)", "effect on": "cell-free assay", "remaining binding [%]": 94}
{"target": "Tyrosine-protein kinase ABL1, non-phosphorylated (ABL1, Homo sapiens, UniProt P00519, F317I)", "effect on": "binding", "remaining binding [%]": 72}
{"target": "Serine/threonine-protein kinase DCLK1 (DCLK1, Homo sapiens, UniProt O15075)", "effect on": "cell-free assay", "remaining binding [%]": 100}
{"target": "Casein kinase I isoform gamma-3 (CSNK1G3, Homo sapiens, UniProt Q9Y6M4)", "effect on": "cell-free assay", "remaining binding [%]": 100}
{"target": "5'-AMP-activated protein kinase catalytic subunit alpha-1 (PRKAA1, Homo sapiens, UniProt Q13131)", "effect on": "cell-free assay", "remaining binding [%]": 100}
{"target": "Ribosomal protein S6 kinase alpha-6, N-terminal kinase domain (RPS6KA6, Homo sapiens, UniProt Q9UK32)", "effect on": "cell-free assay", "remaining binding [%]": 100}
{"target": "STE20-like serine/threonine-protein kinase (SLK, Homo sapiens, UniProt Q9H2G2)", "effect on": "cell-free assay", "remaining binding [%]": 100}
{"target": "Serine/threonine-protein kinase 32A (STK32A, Homo sapiens, UniProt Q8WU08)", "effect on": "binding", "remaining binding [%]": 100}
{"target": "Mitogen-activated protein kinase kinase kinase 20 (MAP3K20, Homo sapiens, UniProt Q9NYL2)", "effect on": "cell-free assay", "remaining binding [%]": 100}
{"target": "Mast/stem cell growth factor receptor Kit, autoinhibited (KIT, Homo sapiens, UniProt P10721)", "effect on": "cell-free assay", "remaining binding [%]": 100}
{"target": "Protein kinase C iota type (PRKCI, Homo sapiens, UniProt P41743)", "effect on": "cell-free assay", "remaining binding [%]": 100}
{"data": "Sample 2", "Structure (SMILES)": "COc1cc2c(cc1OC)-c1[nH]nc(Nc3cccc(F)c3)c1C2", "effect on": "enzyme activity", "action": "inhibitor", "concentration": "0.5 µM", "baseline": "control"}
{"target": "Activin receptor type-1B (ACVR1B, Homo sapiens, UniProt P36896)", "remaining activity [%]": 92.9}
{"target": "Macrophage-stimulating protein receptor (MST1R, Homo sapiens, UniProt Q04912)", "remaining activity [%]": 99.1}
{"target": "Serine/threonine-protein kinase TAO2 (TAOK2, Homo sapiens, UniProt Q9UL54)", "remaining activity [%]": 97.1}
{"target": "Mitogen-activated protein kinase kinase kinase 14 (MAP3K14, Homo sapiens, UniProt Q99558)", "remaining activity [%]": 105}
{"target": "Casein kinase I isoform gamma-3 (CSNK1G3, Homo sapiens, UniProt Q9Y6M4)", "remaining activity [%]": 95}
{"target": "Mitogen-activated protein kinase 3 (MAPK3, Homo sapiens, UniProt P27361)", "remaining activity [%]": 93.7}
{"target": "Rhodopsin kinase GRK7 (GRK7, Homo sapiens, UniProt Q8WTQ7)", "remaining activity [%]": 101}
{"target": "Serine/threonine-protein kinase Nek6 (NEK6, Homo sapiens, UniProt Q9HC98)", "remaining activity [%]": 105}
{"target": "Serine/threonine-protein kinase ULK3 (ULK3, Homo sapiens, UniProt Q6PHR2)", "remaining activity [%]": 96.5}
{"target": "Glycogen synthase kinase-3 beta (GSK3B, Homo sapiens, UniProt P49841)", "remaining activity [%]": 96.6}
{"target": "Serine/threonine-protein kinase TBK1 (TBK1, Homo sapiens, UniProt Q9UHD2)", "remaining activity [%]": 101}
{"target": "Fibroblast growth factor receptor 1 (FGFR1, Homo sapiens, UniProt P11362)", "remaining activity [%]": 99.2}
{"target": "Dual specificity mitogen-activated protein kinase kinase 2 (MAP2K2, Homo sapiens, UniProt P36507)", "remaining activity [%]": 99.8}
{"target": "Angiopoietin-1 receptor (TEK, Homo sapiens, UniProt Q02763)", "remaining activity [%]": 92.5}
{"target": "Tyrosine-protein kinase Mer (MERTK, Homo sapiens, UniProt Q12866)", "remaining activity [%]": 78.7}
{"target": "Tyrosine-protein kinase JAK3 (JAK3, Homo sapiens, UniProt P52333)", "remaining activity [%]": 98.6}
{"target": "Fibroblast growth factor receptor 3 (FGFR3, Homo sapiens, UniProt P22607)", "remaining activity [%]": 99.6}
{"target": "Serine/threonine-protein kinase ULK2 (ULK2, Homo sapiens, UniProt Q8IYT8)", "remaining activity [%]": 97.3}
{"target": "Serine/threonine-protein kinase A-Raf (ARAF, Homo sapiens, UniProt P10398)", "remaining activity [%]": 98.9}
{"target": "Tyrosine-protein kinase FRK (FRK, Homo sapiens, UniProt P42685)", "remaining activity [%]": 67.9}
{"target": "Casein kinase I isoform gamma-2 (CSNK1G2, Homo sapiens, UniProt P78368)", "remaining activity [%]": 89.7}
{"target": "Mitogen-activated protein kinase kinase kinase 5 (MAP3K5, Homo sapiens, UniProt Q99683)", "remaining activity [%]": 99.9}
{"target": "MAP kinase-activated protein kinase 2 (MAPKAPK2, Homo sapiens, UniProt P49137)", "remaining activity [%]": 97.2}
{"target": "Ephrin type-A receptor 3 (EPHA3, Homo sapiens, UniProt P29320)", "remaining activity [%]": 94.5}
{"data": "Sample 3", "sample": "hydrocarbon/water", "pH": "7.4"}
{"SMILES": "CCN1CC(=O)N[C@@H](CC(C)C)C(=O)N(C)[C@@H](C)C(=O)N[C@@H](CC(C)C)C(=O)N(C)Cc2cn(nn2)CC(=O)N[C@@H](CC(C)C)C(=O)N(C)[C@@H](C)C(=O)N[C@@H](CC(C)C)C(=O)N2CCC[C@@H]2C1=O", "logD": -0.305}
{"SMILES": "CC(C)C[C@@H]1NC(=O)[C@H](Cc2ccccc2)N(C)C(=O)[C@H]2CCCN2C(=O)[C@H](CC(C)C)NC(=O)[C@H](C)N(C)C(=O)[C@@H](CC(C)C)N(C)C1=O", "logD": 3.45}
{"SMILES": "CCC[C@H]1C(=O)N[C@@H](CC2CCCCC2)C(=O)N(C)[C@@H](C)C(=O)N[C@@H](CC(C)C)C(=O)N(C)Cc2cn(nn2)CC(=O)N[C@@H](CC(C)C)C(=O)N(C)[C@@H](C)C(=O)N[C@@H](CC(C)C)C(=O)N2CCC[C@@H]2C(=O)N1C", "logD": 1.83}
{"SMILES": "CC(C)C[C@@H]1NC(=O)[C@H](C)N(C)C(=O)[C@H](CC2CCCCC2)NC(=O)[C@H](CC(C)C)N(C)C(=O)[C@H]2CCCN2C(=O)[C@H](CC(C)C)NC(=O)[C@H](C)N(C)C(=O)[C@H](CC(C)C)NC(=O)Cn2cc(nn2)CN(C)C1=O", "logD": 1.94}
{"SMILES": "CC(C)CC1NC(=O)CN(CC2CCOCC2)C(=O)C2CCCN2C(=O)C(CC(C)C)NC(=O)C(C)N(C)C(=O)C(CC(C)C)NC(=O)CN(Cc2ccc3c(c2)OCO3)C(=O)C2CCCN2C(=O)C(Cc2ccccc2)NC(=O)C(C)N(C)C1=O (stereo not shown)", "logD": 2.81}
{"SMILES": "CCC[C@@H]1NC(=O)[C@H](C)N(C)C(=O)[C@H](CC(C)C)NC(=O)Cn2cc(nn2)CN(C)C(=O)[C@H](CC(C)C)NC(=O)[C@H](C)N(C)C(=O)[C@H](CC(C)C)NC(=O)CN(CCC)C(=O)[C@H]2CCCN2C1=O", "logD": -0.401}
{"data": "Sample 4", "Compound": "CC(C)S(=O)(=O)c1cc2c(Nc3ccc4sc(C5CCCC5)nc4c3)ccnc2cc1OCCO"}
{"tested on": "L929 RIPK3 knockout", "assay": "cell viability", "conditions": "without zVAD, 10% FBS", "CC50": "44.9 µM"}
{"tested on": "L929 RIPK3 knockout", "assay": "cell viability", "conditions": "10% FBS, mean of 3, with: zVAD", "CC50": "44.1 µM"}
{"assay": "CCK-8", "system": "L929 RIPK3 knockout, mouse", "conditions": "MEM with 10% FBS", "CC50": "48.8 µM and 43.3 µM"}
{"tested on": "L929", "assay": "cell viability, CCK-8", "conditions": "without zVAD, 10% FBS, mean of 3", "CC50": "36.4 µM"}
{"assay": "CCK-8", "system": "L929 RIPK3 knockout, mouse", "conditions": "MEM with 10% FBS, with: zVAD", "CC50": "41.2 µM and 46.6 µM"}
{"tested on": "L929", "assay": "cell viability, CCK-8", "conditions": "10% FBS, mean of 3, with: zVAD", "CC50": "38.7 µM"}
{"note": "A few entries again (sample 1):"}
{"target": "Phosphatidylinositol 3-kinase C2 domain-containing subunit gamma (PIK3C2G, Homo sapiens, UniProt O75747)", "effect on": "cell-free assay", "remaining binding [%]": 100}
{"target": "Phosphatidylinositol 4-phosphate 5-kinase type-1 gamma (PIP5K1C, Homo sapiens, UniProt O60331)", "effect on": "cell-free assay", "remaining binding [%]": 100}
{"target": "Calcium/calmodulin-dependent protein kinase type II subunit gamma (CAMK2G, Homo sapiens, UniProt Q13555)", "effect on": "cell-free assay", "remaining binding [%]": 94}
{"target": "Tyrosine-protein kinase ABL1, non-phosphorylated (ABL1, Homo sapiens, UniProt P00519, F317I)", "effect on": "binding", "remaining binding [%]": 72}
{"target": "Serine/threonine-protein kinase DCLK1 (DCLK1, Homo sapiens, UniProt O15075)", "effect on": "cell-free assay", "remaining binding [%]": 100}
{"target": "Casein kinase I isoform gamma-3 (CSNK1G3, Homo sapiens, UniProt Q9Y6M4)", "effect on": "cell-free assay", "remaining binding [%]": 100}
{"target": "5'-AMP-activated protein kinase catalytic subunit alpha-1 (PRKAA1, Homo sapiens, UniProt Q13131)", "effect on": "cell-free assay", "remaining binding [%]": 100}
{"target": "Ribosomal protein S6 kinase alpha-6, N-terminal kinase domain (RPS6KA6, Homo sapiens, UniProt Q9UK32)", "effect on": "cell-free assay", "remaining binding [%]": 100}
{"target": "STE20-like serine/threonine-protein kinase (SLK, Homo sapiens, UniProt Q9H2G2)", "effect on": "cell-free assay", "remaining binding [%]": 100}
{"target": "Serine/threonine-protein kinase 32A (STK32A, Homo sapiens, UniProt Q8WU08)", "effect on": "binding", "remaining binding [%]": 100}
